Measurements gathered from unrelated publications.
Lines come from different studies, so protocols differ. “And” joins repeats or separate records; there may be more than shown. ± marks the error that the study gave.
SCN5A: Sodium channel protein type 5 subunit alpha (SCN5A, Homo sapiens, UniProt Q14524)
Chain of UniProt Q14524 (whole entry, looked up): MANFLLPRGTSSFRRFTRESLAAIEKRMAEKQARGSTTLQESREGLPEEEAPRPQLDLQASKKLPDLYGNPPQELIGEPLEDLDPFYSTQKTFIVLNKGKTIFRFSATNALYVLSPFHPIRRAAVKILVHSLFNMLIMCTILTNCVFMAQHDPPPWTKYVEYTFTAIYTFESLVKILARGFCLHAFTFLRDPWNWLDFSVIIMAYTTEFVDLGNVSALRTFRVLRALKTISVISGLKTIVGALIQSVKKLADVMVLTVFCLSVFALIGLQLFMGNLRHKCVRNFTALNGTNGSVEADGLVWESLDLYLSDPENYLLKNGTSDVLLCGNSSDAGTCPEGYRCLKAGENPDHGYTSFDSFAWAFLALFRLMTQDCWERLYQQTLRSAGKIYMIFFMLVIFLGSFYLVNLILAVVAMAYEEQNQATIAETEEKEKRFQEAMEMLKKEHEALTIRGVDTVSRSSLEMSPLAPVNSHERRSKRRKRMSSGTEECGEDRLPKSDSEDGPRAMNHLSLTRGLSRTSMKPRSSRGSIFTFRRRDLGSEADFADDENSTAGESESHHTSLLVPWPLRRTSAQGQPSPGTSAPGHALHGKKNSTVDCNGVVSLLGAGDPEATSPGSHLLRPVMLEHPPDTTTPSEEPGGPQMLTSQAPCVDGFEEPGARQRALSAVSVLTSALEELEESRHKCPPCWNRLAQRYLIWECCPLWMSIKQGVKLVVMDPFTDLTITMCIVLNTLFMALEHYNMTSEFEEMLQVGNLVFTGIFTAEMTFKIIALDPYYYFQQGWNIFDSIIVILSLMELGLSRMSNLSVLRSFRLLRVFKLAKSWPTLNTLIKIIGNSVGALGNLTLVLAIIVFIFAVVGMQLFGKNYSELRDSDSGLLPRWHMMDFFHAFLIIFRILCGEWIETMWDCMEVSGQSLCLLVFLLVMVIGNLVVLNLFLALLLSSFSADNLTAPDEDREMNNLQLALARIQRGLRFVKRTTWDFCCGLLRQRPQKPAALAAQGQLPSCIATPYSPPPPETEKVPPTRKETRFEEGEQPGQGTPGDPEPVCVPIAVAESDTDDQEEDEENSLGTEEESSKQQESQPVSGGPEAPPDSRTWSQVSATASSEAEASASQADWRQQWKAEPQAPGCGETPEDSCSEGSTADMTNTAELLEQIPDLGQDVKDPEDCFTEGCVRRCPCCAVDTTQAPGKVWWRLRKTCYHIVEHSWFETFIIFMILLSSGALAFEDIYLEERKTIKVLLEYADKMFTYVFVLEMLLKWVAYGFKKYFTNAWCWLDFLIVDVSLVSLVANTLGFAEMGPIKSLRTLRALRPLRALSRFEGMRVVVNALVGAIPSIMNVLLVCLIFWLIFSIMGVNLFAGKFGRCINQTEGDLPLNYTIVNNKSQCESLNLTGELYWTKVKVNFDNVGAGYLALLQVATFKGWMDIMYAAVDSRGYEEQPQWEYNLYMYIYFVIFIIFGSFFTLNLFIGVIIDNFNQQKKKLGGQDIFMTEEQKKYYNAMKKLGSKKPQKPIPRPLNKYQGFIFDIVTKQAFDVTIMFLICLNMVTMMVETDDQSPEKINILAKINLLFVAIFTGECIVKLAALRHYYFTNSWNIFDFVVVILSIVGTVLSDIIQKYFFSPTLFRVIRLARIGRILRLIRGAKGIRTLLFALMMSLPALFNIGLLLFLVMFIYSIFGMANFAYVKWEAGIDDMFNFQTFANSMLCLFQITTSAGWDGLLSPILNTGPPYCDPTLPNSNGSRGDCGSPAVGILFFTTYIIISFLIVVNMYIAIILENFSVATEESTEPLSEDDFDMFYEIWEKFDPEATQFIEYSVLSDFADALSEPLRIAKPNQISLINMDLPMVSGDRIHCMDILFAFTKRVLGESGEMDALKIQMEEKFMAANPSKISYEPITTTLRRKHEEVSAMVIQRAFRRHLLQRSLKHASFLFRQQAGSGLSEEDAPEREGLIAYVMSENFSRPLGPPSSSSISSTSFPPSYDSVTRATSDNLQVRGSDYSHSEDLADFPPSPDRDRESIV
Tumor necrosis factor receptor superfamily member 9/Nectin-4: Tumor necrosis factor receptor superfamily member 9/Nectin-4 (Homo sapiens, UniProt Q07011+Q96NY8)
Chain of UniProt Q96NY8 (whole entry, looked up): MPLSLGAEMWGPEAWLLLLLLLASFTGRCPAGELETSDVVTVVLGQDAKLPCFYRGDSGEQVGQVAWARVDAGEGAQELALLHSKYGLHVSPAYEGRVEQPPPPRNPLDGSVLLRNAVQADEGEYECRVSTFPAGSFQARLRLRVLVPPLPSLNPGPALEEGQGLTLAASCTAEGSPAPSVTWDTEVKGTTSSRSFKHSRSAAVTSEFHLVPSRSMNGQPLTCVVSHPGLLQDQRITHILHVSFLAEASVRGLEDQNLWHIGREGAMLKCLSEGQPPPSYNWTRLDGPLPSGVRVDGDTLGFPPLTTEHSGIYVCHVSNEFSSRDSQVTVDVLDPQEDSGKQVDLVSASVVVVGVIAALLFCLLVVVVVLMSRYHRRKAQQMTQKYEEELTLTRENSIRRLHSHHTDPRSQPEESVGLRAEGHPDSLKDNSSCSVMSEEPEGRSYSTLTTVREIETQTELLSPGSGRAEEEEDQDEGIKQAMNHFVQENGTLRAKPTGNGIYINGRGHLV
Chain of UniProt Q07011 (whole entry, looked up): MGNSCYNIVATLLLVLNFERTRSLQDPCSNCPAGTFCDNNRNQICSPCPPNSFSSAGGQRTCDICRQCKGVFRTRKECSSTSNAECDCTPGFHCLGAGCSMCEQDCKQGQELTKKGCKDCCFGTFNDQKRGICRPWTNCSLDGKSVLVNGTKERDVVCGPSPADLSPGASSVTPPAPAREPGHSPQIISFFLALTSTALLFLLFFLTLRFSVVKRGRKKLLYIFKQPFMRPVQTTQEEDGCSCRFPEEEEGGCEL
Chain of UniProt Q16853 (whole entry, looked up): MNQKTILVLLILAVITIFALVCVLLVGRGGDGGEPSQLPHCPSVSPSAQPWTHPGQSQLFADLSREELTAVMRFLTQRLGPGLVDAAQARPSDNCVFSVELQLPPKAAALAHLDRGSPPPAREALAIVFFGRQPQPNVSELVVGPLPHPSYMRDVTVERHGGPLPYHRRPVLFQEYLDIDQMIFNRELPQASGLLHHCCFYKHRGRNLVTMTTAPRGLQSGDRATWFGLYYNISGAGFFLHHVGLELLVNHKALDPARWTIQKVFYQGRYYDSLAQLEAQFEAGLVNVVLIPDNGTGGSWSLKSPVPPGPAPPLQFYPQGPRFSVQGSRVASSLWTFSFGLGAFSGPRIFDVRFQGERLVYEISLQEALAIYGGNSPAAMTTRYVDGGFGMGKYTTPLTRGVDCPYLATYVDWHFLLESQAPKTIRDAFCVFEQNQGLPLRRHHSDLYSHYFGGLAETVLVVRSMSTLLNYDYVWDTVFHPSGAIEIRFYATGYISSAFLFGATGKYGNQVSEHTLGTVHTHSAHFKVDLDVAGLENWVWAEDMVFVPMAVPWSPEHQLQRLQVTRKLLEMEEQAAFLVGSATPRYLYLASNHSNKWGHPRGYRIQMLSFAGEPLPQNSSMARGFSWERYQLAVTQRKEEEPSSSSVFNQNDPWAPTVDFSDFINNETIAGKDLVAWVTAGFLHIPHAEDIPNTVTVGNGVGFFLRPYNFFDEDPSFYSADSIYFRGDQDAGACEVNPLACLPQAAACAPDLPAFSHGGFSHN
Chain of UniProt Q92887 (whole entry, looked up): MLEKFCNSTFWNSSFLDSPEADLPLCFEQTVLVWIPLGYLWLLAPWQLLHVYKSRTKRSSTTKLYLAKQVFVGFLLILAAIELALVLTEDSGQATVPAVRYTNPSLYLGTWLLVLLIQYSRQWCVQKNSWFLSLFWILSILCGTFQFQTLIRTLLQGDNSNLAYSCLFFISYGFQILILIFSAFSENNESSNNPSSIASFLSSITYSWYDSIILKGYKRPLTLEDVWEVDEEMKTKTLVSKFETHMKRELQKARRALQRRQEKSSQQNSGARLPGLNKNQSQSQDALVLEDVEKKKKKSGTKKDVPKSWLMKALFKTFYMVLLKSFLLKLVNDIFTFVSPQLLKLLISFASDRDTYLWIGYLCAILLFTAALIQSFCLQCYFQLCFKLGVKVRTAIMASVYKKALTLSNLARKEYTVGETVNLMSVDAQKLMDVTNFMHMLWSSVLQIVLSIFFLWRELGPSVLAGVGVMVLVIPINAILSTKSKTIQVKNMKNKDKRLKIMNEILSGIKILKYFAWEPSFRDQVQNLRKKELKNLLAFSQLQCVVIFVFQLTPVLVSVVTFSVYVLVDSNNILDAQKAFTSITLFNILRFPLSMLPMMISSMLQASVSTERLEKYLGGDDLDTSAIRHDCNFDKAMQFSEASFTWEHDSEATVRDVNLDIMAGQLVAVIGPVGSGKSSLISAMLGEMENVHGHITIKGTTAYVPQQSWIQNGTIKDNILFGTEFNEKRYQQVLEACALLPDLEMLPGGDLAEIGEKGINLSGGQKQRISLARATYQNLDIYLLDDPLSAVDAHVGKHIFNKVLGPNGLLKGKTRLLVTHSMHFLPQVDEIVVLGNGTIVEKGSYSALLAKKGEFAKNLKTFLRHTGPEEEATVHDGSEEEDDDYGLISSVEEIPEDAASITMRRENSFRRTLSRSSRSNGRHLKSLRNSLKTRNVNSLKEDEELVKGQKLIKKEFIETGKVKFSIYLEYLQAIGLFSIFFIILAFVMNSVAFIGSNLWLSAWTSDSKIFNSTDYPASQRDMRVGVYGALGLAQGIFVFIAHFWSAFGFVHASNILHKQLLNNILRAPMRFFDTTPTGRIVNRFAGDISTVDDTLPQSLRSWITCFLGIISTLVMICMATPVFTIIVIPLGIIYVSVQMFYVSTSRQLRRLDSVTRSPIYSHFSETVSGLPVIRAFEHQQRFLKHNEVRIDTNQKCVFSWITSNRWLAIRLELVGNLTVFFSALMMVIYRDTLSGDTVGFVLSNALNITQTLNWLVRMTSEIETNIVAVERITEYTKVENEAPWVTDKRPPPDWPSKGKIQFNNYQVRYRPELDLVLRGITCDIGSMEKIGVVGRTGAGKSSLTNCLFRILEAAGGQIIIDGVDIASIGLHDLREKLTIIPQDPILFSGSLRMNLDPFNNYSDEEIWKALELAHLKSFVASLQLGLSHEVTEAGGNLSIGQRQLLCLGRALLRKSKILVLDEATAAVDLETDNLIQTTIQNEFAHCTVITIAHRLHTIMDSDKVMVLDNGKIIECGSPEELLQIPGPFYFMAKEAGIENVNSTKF

O=C(NCC1CCCCN1)c1cc(OCC(F)(F)F)ccc1OCC(F)(F)F (stereo not shown)  recovery from inactivation (SCN5A; near IC50, 200 ms, -120 mV hyperpolarization): 52.6%
O=c1[nH]c(=O)c(Cc2cccc(C(F)(F)F)c2)c([C@H]2CC[C@H](c3ccccc3)CC2)[nH]1  IC50 (ATP-binding cassette sub-family C member 2 (ABCC2, Homo sapiens, UniProt Q92887); transport, inhibitor; inside-out membrane vesicles; added: estradiol 17-beta-D-glucuronide): > 2 µM
CCCC[C@@H]1NC(=O)[C@H](Cc2ccc(O)cc2)NC(=O)[C@@H]2CCCN2C(=O)[C@H](CC(=O)O)NC(=O)[C@H](C)NC(=O)[C@H](Cc2ccccc2)NC(=O)[C@@H]2CSCCC(=O)N3CN(CN(C3)C(=O)CCSC[C@@H](C(=O)N[C@@H](CNC(=O)CCOCCOCCOCCOCCOCCOCCOCCOCCOCCOCCOCCOCCn3cc(CCC(=O)NCCC(=O)N(C)CC(=O)N(C)CC(=O)N(C)CC(=O)N(C)CC(=O)N(C)CC(=O)N(C)CC(=O)N(C)CC(=O)N(C)CC(=O)N(C)CC(=O)N(C)CC(=O)N[C@H]4CSCCC(=O)N5CN6CN(C5)C(=O)CCSC[C@H](NC(=O)[C@@H](CC(=O)O)NC(=O)[C@H](Cc5cccc7ccccc57)NC(=O)[C@@H]5CCCN5C4=O)C(=O)N[C@@H](CCSC)C(=O)N[C@@H](CCCCNC(=N)N)C(=O)N[C@@H](CC(=O)O)C(=O)N[C@@H](Cc4c[nH]c5ccccc45)C(=O)N[C@@H](CO)C(=O)N[C@@H]([C@@H](C)O)C(=O)N4CCC[C@H]4C(=O)N4C[C@H](O)C[C@H]4C(=O)N[C@@H](Cc4c[nH]c5ccccc45)C(=O)N[C@H](C(N)=O)CSCCC6=O)nn3)C(N)=O)NC1=O)C(=O)CCSC[C@H](NC(=O)[C@H](C)NC(C)=O)C(=O)N[C@@H]([C@@H](C)CC)C(=O)N[C@@H](CCC(=O)O)C(=O)N[C@@H](CCC(=O)O)C(=O)NCC(=O)N[C@@H](CCC(N)=O)C(=O)N[C@@H](Cc1ccc(O)cc1)C(=O)N2  Emax (Tumor necrosis factor receptor superfamily member 9/Nectin-4; reporter gene, agonist, luciferase reporter; CD137 Jurkat reporter with HT-1376; 6 h, geometric mean; baseline: wells without compound): 25 fold
C=CC(=O)N1C[C@H](Nc2ncnc3[nH]ccc23)CC[C@@H]1C  AUC(0-inf) (CYP; substrate; human, plasma; oral, single dose, added: rifampicin multiple doses once daily): 261 ng·h/mL
CCCC[C@@H]1NC(=O)[C@H](Cc2ccc(O)cc2)NC(=O)[C@@H]2CCCN2C(=O)[C@H](CC(=O)O)NC(=O)[C@H](C)NC(=O)[C@H](Cc2ccccc2)NC(=O)[C@@H]2CSCCC(=O)N3CN(CN(C3)C(=O)CCSC[C@@H](C(=O)N[C@@H](CNC(=O)CCc3cn(CCOCCOCCOCCOCCOCCOCCOCCOCCOCCOCCOCCOCCC(=O)NCCC(=O)N(C)CC(=O)N(C)CC(=O)N(C)CC(=O)N(C)CC(=O)N(C)CC(=O)N(C)CC(=O)N(C)CC(=O)N(C)CC(=O)N(C)CC(=O)N(C)CC(=O)NCCCC[C@@H]4NC(=O)[C@H](Cc5cccc6ccccc56)NC(=O)[C@@H]5CCCN5C(=O)[C@@H](NC(C)=O)CSCCC(=O)N5CN6CN(C5)C(=O)CCSC[C@H](NC4=O)C(=O)N[C@@H](CCSC)C(=O)N[C@@H](CCCCNC(=N)N)C(=O)N[C@@H](CC(=O)O)C(=O)N[C@@H](Cc4c[nH]c5ccccc45)C(=O)N[C@@H](CO)C(=O)N[C@@H]([C@@H](C)O)C(=O)N4CCC[C@H]4C(=O)N4C[C@H](O)C[C@H]4C(=O)N[C@@H](Cc4c[nH]c5ccccc45)C(=O)N[C@H](C(N)=O)CSCCC6=O)nn3)C(N)=O)NC1=O)C(=O)CCSC[C@H](NC(C)=O)C(=O)N[C@@H](CC(C)(C)C)C(=O)N1CCC[C@H]1C(=O)N[C@@H](CCC(=O)O)C(=O)N[C@H](C)C(=O)N1CCC[C@H]1C(=O)N[C@@H](Cc1ccc(O)cc1)C(=O)N2  Emax (Tumor necrosis factor receptor superfamily member 9/Nectin-4; reporter gene, agonist, luciferase reporter; CD137 Jurkat reporter with HT-1376; 6 h, geometric mean; baseline: wells without compound): 39 fold
NCc1cc2c(cc1F)C(=O)N(C1CCC(=O)NC1=O)C2 (stereo not shown)  concentration (Amine oxidase [copper-containing] 3 (AOC3, Homo sapiens, UniProt Q16853); substrate, LC-MS/MS; cirrhotic human liver lysate; 500.00 µM, 60 min, pH 7.4): 38600 ng/mL and 30100 ng/mL
Cc1oc2ccccc2c1Cc1cc(I)c(OCC(=O)O)c(I)c1  inward tail current block (Voltage-gated inwardly rectifying potassium channel KCNH2 (KCNH2, Homo sapiens, UniProt Q12809); ion current, whole-cell patch clamp; HEK293 expressing hERG1; 10 µM, K+ 10 mM, after +40 mV): 40 ± 3%
COc1cc2c(CCNC(C)=O)c[nH]c2cc1O  specific activity (Sulfotransferase 1A3 (SULT1A3, Homo sapiens, UniProt P0DMM9); substrate, sulfation, purified enzyme; 10 µM, 10 min, pH 7.0, 37 °C): 12 ± 0.49 nmol/min/mg
Cn1cc2c(C(=O)O)ccc(NS(=O)(=O)c3ccc(OCC4CCC4)c(Cl)c3)c2n1  IC50 (SCN5A; antagonist): > 100 µM
CCCC[C@@H]1NC(=O)[C@H](Cc2ccc(O)cc2)NC(=O)[C@@H](C)N(C)C(=O)[C@H](CC(=O)O)NC(=O)[C@H](C)NC(=O)[C@H](Cc2ccccc2)NC(=O)[C@@H]2CSCCC(=O)N3CN(CN(C3)C(=O)CCSC[C@H](NC(C)=O)C(=O)N[C@@H](CC(C)(C)C)C(=O)N3CCC[C@H]3C(=O)N[C@@H](CCC(=O)O)C(=O)N[C@H](CCCCNC(=O)CCc3cn(CCOCCOCCOCCN(CCOCCOCCOCCC(=O)N[C@H]4CSCCC(=O)N5CN6CN(C5)C(=O)CCSC[C@H](NC(=O)[C@@H](CC(=O)O)NC(=O)[C@H](Cc5cccc7ccccc57)NC(=O)[C@@H]5CCCN5C4=O)C(=O)N[C@@H](CCSC)C(=O)N[C@@H](CCCCNC(=N)N)C(=O)N[C@@H](CC(=O)O)C(=O)N[C@@H](Cc4c[nH]c5ccccc45)C(=O)N[C@@H](CO)C(=O)N[C@@H]([C@@H](C)O)C(=O)N4CCC[C@H]4C(=O)N4C[C@H](O)C[C@H]4C(=O)N[C@@H](Cc4c[nH]c5ccccc45)C(=O)N[C@H](C(N)=O)CSCCC6=O)CCOCCOCCOCCn4cc(CCC(=O)NCCCC[C@H]5NC(=O)[C@H](CCC(=O)O)NC(=O)[C@@H]6CCCN6C(=O)[C@H](CC(C)(C)C)NC(=O)[C@@H](NC(C)=O)CSCCC(=O)N6CN7CN(C6)C(=O)CCSC[C@H](NC(=O)[C@H](Cc6ccc(O)cc6)NC(=O)[C@@H]6CCCN6C5=O)C(=O)N[C@@H](Cc5ccccc5)C(=O)N[C@@H](C)C(=O)N[C@@H](CC(=O)O)C(=O)N(C)[C@H](C)C(=O)N[C@@H](Cc5ccc(O)cc5)C(=O)N[C@@H](CCCC)C(=O)N[C@H](C(N)=O)CSCCC7=O)nn4)nn3)C(=O)N3CCC[C@H]3C(=O)N[C@@H](Cc3ccc(O)cc3)C(=O)N2)C(=O)CCSC[C@@H](C(N)=O)NC1=O  Emax (Tumor necrosis factor receptor superfamily member 9/Nectin-4; reporter gene, agonist, luciferase reporter; CD137 Jurkat reporter with HT-1376; 6 h, geometric mean; baseline: wells without compound): 75 fold
CC[C@H]1[C@@H](O)[C@@H]2[C@H](CC[C@]3(C)[C@@H]([C@H](C)CCNC(=O)NS(=O)(=O)c4ccc(C(C)(C)C)cc4)CC[C@@H]23)[C@@]2(C)CC[C@@H](O)C[C@@H]12  AUC(0-t) geometric mean (Cytochrome P450 3A4 (CYP3A4, Homo sapiens, UniProt P08684); substrate; human, plasma; 10 mg, alone, study day 1): 356 ng·h/mL
COc1cc(O)c(CC=C(C)C)c2c1C(=O)CC(c1ccc(O)cc1)O2 (stereo not shown)  inhibition (CYP2B6 (human); enzyme activity, inhibitor; human liver microsomes; 10 µM, pH 7.4, added: bupropion): < 10%
CCCC[C@@H]1NC(=O)[C@H](Cc2ccc(O)cc2)NC(=O)[C@@H]2CCCN2C(=O)[C@H](CC(=O)O)NC(=O)[C@H](C)NC(=O)[C@H](Cc2ccccc2)NC(=O)[C@@H]2CSCCC(=O)N3CN(CN(C3)C(=O)CCSC[C@@H](C(=O)N[C@@H](C)C(N)=O)NC1=O)C(=O)CCSC[C@H](NC(C)=O)C(=O)N[C@@H](CC(C)(C)C)C(=O)N1CCC[C@H]1C(=O)N[C@@H](CCCCNC(=O)CCc1cn(CCOCCOCCOCCOCCOCCC(=O)N[C@H]3CSCCC(=O)N4CN5CN(C4)C(=O)CCSC[C@H](NC(=O)[C@@H](CC(=O)O)NC(=O)[C@H](Cc4cccc6ccccc46)NC(=O)[C@@H]4CCCN4C3=O)C(=O)N[C@@H](CCSC)C(=O)N[C@@H](CCCCNC(=N)N)C(=O)N[C@@H](CC(=O)O)C(=O)N[C@@H](Cc3c[nH]c4ccccc34)C(=O)N[C@@H](CO)C(=O)N[C@@H]([C@@H](C)O)C(=O)N3CCC[C@H]3C(=O)N3C[C@H](O)C[C@H]3C(=O)N[C@@H](Cc3c[nH]c4ccccc34)C(=O)N[C@H](C(N)=O)CSCCC5=O)nn1)C(=O)N[C@H](C)C(=O)N1CCC[C@H]1C(=O)N[C@@H](Cc1ccc(O)cc1)C(=O)N2  Emax (Tumor necrosis factor receptor superfamily member 9/Nectin-4; reporter gene, agonist, luciferase reporter; CD137 Jurkat reporter with HT-1376; 6 h, geometric mean; baseline: wells without compound): 37 fold
C[C@H]1CN(C2COC2)CCN1c1ccc(Nc2cc(-c3ccnc(N4CCn5c(cc6c5CC(C)(C)C6)C4=O)c3CO)cn(C)c2=O)nc1  remaining compound (human CYP2C9; human liver microsomes; 1 µM, 60 min, pH 7.4, added: sulfaphenazole 10 µM, NADPH; baseline: 0 min): 55.5 ± 4.1%
Cc1ccc2c(c1)C(=O)[C@]1(O)CCN(c3ccc4nc(C)ccc4c3)C1=N2.Cl  inhibition (SCN5A; concentration not given): < 25%
CCCN1CCCC[C@H]1C(=O)Nc1c(C)cccc1C  inhibition (SCN5A; Nav1.5 current; HEK stably transfected Nav1.5; 100 µM): 44.7 ± 5.6%

A few entries again:
C[C@H]1CN(C2COC2)CCN1c1ccc(Nc2cc(-c3ccnc(N4CCn5c(cc6c5CC(C)(C)C6)C4=O)c3CO)cn(C)c2=O)nc1  remaining compound (human CYP2C9; human liver microsomes; 1 µM, 60 min, pH 7.4, added: sulfaphenazole 10 µM, NADPH; baseline: 0 min): 55.5 ± 4.1%
